Results of several laboratories.
Values joined by “and” are separate records of one study, mostly repeats; a detail may differ. ± marks the error that the study gave.
Action: inhibitor
gag-pol reverse transcriptase p66/p51: Gag-Pol polyprotein, reverse transcriptase p66/p51 (gag-pol, Human immunodeficiency virus type 1 group M subtype B, UniProt P04585)
gag-pol integrase: Gag-Pol polyprotein, integrase (gag-pol, Human immunodeficiency virus type 1 group M subtype B, UniProt P04585)
gag-pol RT RNase H domain: Gag-Pol polyprotein, RT RNase H domain (gag-pol, Human immunodeficiency virus type 1 group M subtype B, UniProt P04585)

SMILES	target	test	system	setting	IC50
O=C(O)Cc1cc(=O)oc2c(O)c(O)ccc12	gag-pol reverse transcriptase p66/p51	–	–	–	1.1 µM
COc1cc(OC)cc(-c2ccc(Sc3cc(=O)n(O)c(=O)[nH]3)cc2)c1	gag-pol integrase	strand transfer activity	HIV-1	–	> 100 µM
C=C(C)[C@@H]1CC[C@]2(C(=O)[O-])CC[C@]3(C)[C@H](CC[C@@H]4[C@@]5(C)CC[C@H](O)C(C)(C)[C@@H]5CC[C@]43C)[C@@H]12.C[N+](C)(C)CCO	Gag-Pol polyprotein, protease (gag-pol, Human immunodeficiency virus type 1 group M subtype B, UniProt P04585)	enzyme activity	–	pH 4.7	22 µM
CCOCn1c(C(=O)c2ccccc2)c(CC)c(=O)n(O)c1=O	gag-pol integrase	strand transfer, gel-based	HIV-1	–	> 111 µM
COc1ccc(N2CCN(Cc3cc(=O)oc4c(O)c(O)ccc34)CC2)cc1	gag-pol reverse transcriptase p66/p51	RNase H activity	p66/p51 RT heterodimer	pH 8.0, together with: 10 mM Mg2+	0.7 µM
O=C(O)c1ccc(-c2cccc(/C=N/NC(=O)c3cc(O)c(O)c(O)c3)c2)cc1	gag-pol RT RNase H domain	RNase H activity	HIV-1	together with: 10 mM Mg2+	0.2 ± 0.1 µM
COc1ccccc1C(=O)Nc1sc2c(c1C(=O)Nc1ccccn1)CCCCC2	gag-pol RT RNase H domain	RNase H activity	–	wild type reverse transcriptase	14.2 ± 0.2 µM
O=c1cc(Sc2ccc(-c3cccc(C(F)(F)F)c3)cc2)[nH]c(=O)n1O	gag-pol integrase	strand transfer activity	HIV-1	–	> 100 µM
O=c1cc(CN2CCN(c3cccc(Cl)c3)CC2)c2ccc(O)c(O)c2o1	gag-pol reverse transcriptase p66/p51	RNase H activity, fluorescence	HIV-1	pH 7.4, together with: 1 mM Mg2+	~0.8 µM and 0.8 µM
NC(=O)c1c(N)sc2c1CCCCC2	gag-pol RT RNase H domain	RNase H activity	–	wild type reverse transcriptase	4 ± 0.5 µM
O=c1cc(Sc2ccccc2-c2ccc(F)cc2)[nH]c(=O)n1O	gag-pol integrase	strand transfer activity	HIV-1	–	> 100 µM

Some of these lines once more:
SMILES	target	test	system	setting	IC50
O=C(O)c1ccc(-c2cccc(/C=N/NC(=O)c3cc(O)c(O)c(O)c3)c2)cc1	gag-pol RT RNase H domain	RNase H activity	HIV-1	together with: 10 mM Mg2+	0.2 ± 0.1 µM
NC(=O)c1c(N)sc2c1CCCCC2	gag-pol RT RNase H domain	RNase H activity	–	wild type reverse transcriptase	4 ± 0.5 µM
